Published values pooled from the literature.
Protocols differ between the studies behind these lines. Numbers after ± are the reported error.
MEP cytidylyltransferase IspD: MEP cytidylyltransferase IspD (Plasmodium falciparum, UniProt Q8I273)
Grm5: Metabotropic glutamate receptor 5 (Grm5, Rattus norvegicus, UniProt P31424)
DDR1: Epithelial discoidin domain-containing receptor 1 (DDR1, Homo sapiens, UniProt Q08345)
Gja8: Gap junction alpha-8 protein (Gja8, Mus musculus, UniProt P28236)
PDE5A: cGMP-specific 3',5'-cyclic phosphodiesterase (PDE5A, Homo sapiens, UniProt O76074)
FGFR1: Fibroblast growth factor receptor 1 (FGFR1, Homo sapiens, UniProt P11362)

`O=C(O)[C@@H]1Cc2c([nH]c3ccccc23)[C@@H](c2ccc(Br)cc2Br)N1` gave an IC50 of 0.084 ± 0.014 µM (MEP cytidylyltransferase IspD; enzyme activity, inhibitor, fluorimetric pyrophosphate; 60 nM enzyme).
`Cc1ccc(-n2nc(C3CC3)nc2C2CCCN(C(N)=O)C2)cc1C` (stereo not shown) gave an IC50 of 42.8 µM (Aromatase (CYP19A1, Homo sapiens, UniProt P11511); enzyme activity, inhibitor, fluorescence).
`CC(=O)Nc1nnc(S(=O)(=O)CC(=O)C23CC4CC(CC(C4)C2)C3)s1` gave an IC50 of 0.309 µM (11-beta-hydroxysteroid dehydrogenase 1 (HSD11B1, Homo sapiens, UniProt P28845); enzyme activity in cells, inhibitor).
`CC(C)Sc1cccc(O)c(=O)c1O` gave an IC50 of 184 ± 27 µM (Protein P, RNase H domain (P, Hepatitis B virus genotype D subtype ayw, UniProt P03156); RNase H activity, inhibitor; Hepatitis B virus).
With `Oc1c(C(Nc2nc3ccccc3s2)c2cccc(OCc3ccccc3)c2)ccc2cccnc12` (stereo not shown) the IC50 was 2.39 ± 0.04 µM (Genome polyprotein, NS2B-NS3 protease (GP1, West Nile virus, UniProt Q9Q6P4); enzyme activity, inhibitor; 0.1% CHAPS, added: tetrapeptide substrate).
For `N#Cc1cc(F)cc(-c2ccc3cccnc3c2)c1`, the IC50 was 0.182 µM (Grm5; calcium signal, antagonist).
The IC50 of `O=C(Nc1ccc(Cl)c(Cl)c1)Nc1ccc(Cl)c(NCc2cccnc2)c1` is reported as 1.11 µM (DDR1; enzyme activity, inhibitor, mobility shift).
For `OC(c1ccccc1)(c1cccs1)c1cccs1`, the IC50 was 10 µM (Gja8; gap junction current, inhibitor, dual whole-cell voltage clamp; transfected mouse N2a cell pairs).
`CC(=O)OCC1C=C(C2(C)CCCCC2)CCC1COC(C)=O` (single isomer, unassigned; (+)) has an IC50 of over 10 µM (Peptidyl-prolyl cis-trans isomerase A (PPIA, Homo sapiens, UniProt P62937); enzyme activity, inhibitor).
The IC50 of `COCCCN1CCc2c(Cc3ccc(Cl)cc3)[nH]c3c(OC)ccc(c23)C1=O` is reported as 0.0088 µM (PDE5A; enzyme activity, inhibitor).
`O=[N+]([O-])c1ccc(/N=N/c2ccc(O)c(O)c2)cc1` has an IC50 of 5.9 µM (Semaphorin-3C, with neuropilin-1 (SEMA3C, Homo sapiens, UniProt Q99985); SEMA3C binding, inhibitor, displacement; added: SEMA3C-AP).
For `O=C(CCNS(=O)(=O)c1ccc2[nH]c(=O)oc2c1)NCc1cccc(F)c1`, the IC50 was 66 µM (Intestinal-type alkaline phosphatase (Mus musculus, UniProt P24822); enzyme activity, inhibitor, luminescence; added: CDP-Star substrate).
`COc1cc2nccc(Oc3ccc(NC(=S)NC4CC4)c(Cl)c3)c2cc1C(=O)NCC(F)(F)F` has an IC50 of 4.44 µM (FGFR1).
With `CCCCCCc1ccc(S(=O)(=O)N2CC2C(=O)N(CC)CC)cc1` (stereo not shown) the IC50 was over 200 µM (Protein disulfide-isomerase (P4HB, Homo sapiens, UniProt P07237); enzyme activity, inhibitor, absorbance; pH 7.6).
For `Nc1nc(Cl)nc2c1ncn2Cc1cc(OCC(F)F)cc(OC(F)F)c1`, the IC50 was 4.83 µM (PDE5A; enzyme activity, inhibitor).
The IC50 of `Cc1cccc(C(=O)Nc2ccc(CN)cc2)c1O` is reported as 42.1 ± 2.9 µM (Transmembrane protease serine 11D (TMPRSS11D, Homo sapiens, UniProt O60235); enzyme activity, inhibitor; 15 min preincubation, added: Boc-VPR-AMC 100 µM).
`C[C@]12CCC(=O)C=C1CCC1C2CC[C@]2(C)C(c3cccnc3)=CCC12` (stereo partly shown) gave an IC50 of 0.0053 µM (Androgen receptor (AR, Homo sapiens, UniProt P10275, T878A); binding; LNCaP; mutant receptor, added: [3H]-R1881 0.1 nM).
With `C=CC(=O)N1CCC(c2c(-c3ccc(OC)cc3)c3c(N)ncnc3n2C)C1` (stereo not shown) the IC50 was 1.44 µM (FGFR1; Caliper mobility shift; 30 min preincubation, added: 100 µM ATP).
The IC50 of `CCCN(CC(=O)N(CC(N)=O)Cc1cn(CCCNC(=O)CCCOc2cccc(-c3nc4ccc(-c5nc6ccc(N7CCN(C)CC7)cc6[nH]5)cc4[nH]3)c2)nn1)C(=O)CNCc1cn(CCCNC(=O)CCCOc2cccc(-c3nc4ccc(-c5nc6ccc(N7CCN(C)CC7)cc6[nH]5)cc4[nH]3)c2)nn1` is reported as 25 ± 6 µM (MBNL1–r(CUG)109 complex; MBNL1 displacement; added: bulk yeast tRNA competitor).
For `C[C@@H](O)[C@H](NC(=O)CP(=O)(O)OC[C@H]1O[C@@H](n2cnc3c(N)ncnc32)[C@H](O)[C@@H]1O)C(=O)O`, the IC50 was 0.4 µM (tsaD/tsaC, with TsaB and TsaE (Escherichia coli, UniProt P05852+P45748); HPLC; pH 7.5, 23 °C, added: 0.1 mM ATP).
With `CC(C)C(=O)SCCCCCC(NC(=O)OC(C)(C)C)C(=O)NC12CC3CC(CC(C3)C1)C2` (stereo not shown) the IC50 was over 100 µM (HDAC (Lucilia cuprina egg nuclear extract); enzyme activity, inhibitor, fluorometric).
With `O=C(O)/C=C\c1cc2ccoc2cc1O[C@@H]1O[C@H](CO)[C@@H](O)[C@H](O)[C@H]1O` the IC50 was 53 µM (Solute carrier family 22 member 12 (SLC22A12, Homo sapiens, UniProt Q96S37)).
`CCN1CCC(N(C)C(=O)Cc2ccc(O)cc2Cl)C(C)C1` (stereo not shown) has an IC50 of 255 ± 10.4 µM (Replication protein A 70 kDa DNA-binding subunit (RPA1, Homo sapiens, UniProt P27694); inhibitor, FRET).
`CC[C@H](C)[C@H](NC(C)=O)C(=O)N[C@H](CC(=O)N[C@H](C(=O)N[C@@H](C)C(=O)N[C@@H](CCC(N)=O)C(=O)N[C@@H](CCC(=O)O)CC(=O)N[C@@H](CC(C)C)C(=O)N[C@@H](CCCNC(=N)N)C(=O)N[C@@H](CCCNC(=N)N)CC(=O)N[C@H](C(=O)NCC(=O)N[C@@H](CC(=O)O)C(=O)N[C@@H](CCC(=O)O)CC(=O)N[C@@H](Cc1ccccc1)C(=O)N[C@@H](CC(N)=O)C(=O)N[C@@H](C)CC(=O)N[C@@H](Cc1ccc(O)cc1)C(=O)N[C@@H](Cc1ccc(O)cc1)C(N)=O)[C@@H](C)CC)[C@@H](C)CC)Cc1c[nH]c2ccccc12` gave an IC50 of 0.62 ± 0.035 µM (Bcl-2-like protein 2 (BCL2L2, Homo sapiens, UniProt Q92843); competition SPR; pH 7.4, added: BimBH3 peptide).
`CNC(=S)Nc1cccc([N+](=O)[O-])c1` gave an IC50 of 300 ± 100 µM (Urea transporter 1 (Slc14a1, Rattus norvegicus, UniProt P97689); urea transport, inhibitor; rat erythrocytes; 15 min).
`CCC1(CC)C[C@@H](NC(=O)Nc2cccc3c(C)nccc23)c2cc(F)ccc2O1` gave an IC50 of 0.0797 µM (Transient receptor potential cation channel subfamily V member 1 (Trpv1, Rattus norvegicus, UniProt O35433); calcium signal, antagonist, fluorescence).
With `NCc1cccc(C2CCN(C(=O)c3cccc(OCC(=O)C4(O)CCC4)c3)CC2)c1` the IC50 was 0.0233 µM (Tryptase beta-1 (Homo sapiens, UniProt Q15661); enzyme activity, inhibitor; tryptase 10 pM, added: AMC substrate).
`OC(c1ccccc1)(c1ccccc1)c1cccs1` has an IC50 of 4 µM (Gja8; gap junction current, inhibitor, dual whole-cell voltage clamp; transfected mouse N2a cell pairs).
For `COc1cc2nccc(Oc3ccc(NC(=S)N4CCC(F)(F)C4)c(Cl)c3)c2cc1C(N)=O`, the IC50 was 0.476 µM (FGFR1).
`O=c1c(OCc2ccccc2)c(-c2ccccc2)oc2ccccc12` has an IC50 of 1.02 ± 0.02 µM (β-glucosidase; enzyme activity, inhibitor).
`CO[C@@H]([C@@H](O)[C@H](O)C(=O)CO)[C@@H](C)O` gave an IC50 of over 1000 µM (3-dehydroquinate synthase, chloroplastic (DHQS, Arabidopsis thaliana, UniProt Q8VYV7); enzyme activity, inhibitor, malachite green phosphate release; 29 °C).
With `CC[C@H](C)[C@H](NC(=O)[C@H](CO)NC(=O)[C@H](Cc1ccc(O)cc1)NC(=O)[C@H](CC(=O)O)NC(=O)[C@H](CO)NC(=O)[C@@H](NC(=O)[C@H](Cc1ccccc1)NC(=O)[C@@H](NC(=O)CNC(=O)[C@@H]1CCCN1C(=O)[C@H](C)NC(=O)[C@@H](N)Cc1ccc(O)cc1)[C@@H](C)O)[C@@H](C)CC)C(=O)N[C@@H](C)C(=O)N[C@@H](CCSC)C(=O)N[C@@H](CC(=O)O)C(=O)N[C@@H](CCCCN)C(=O)N[C@H](C(=O)N[C@@H](Cc1c[nH]cn1)C(=O)N[C@@H](CCC(N)=O)C(=O)N[C@@H](CCC(N)=O)C(=O)N[C@@H](CC(=O)O)C(=O)N[C@@H](Cc1ccccc1)C(=O)N[C@H](C(=O)N[C@@H](CC(N)=O)C(=O)N[C@@H](Cc1c[nH]c2ccccc12)C(=O)N[C@@H](CC(C)C)C(=O)N[C@@H](CC(C)C)C(=O)N[C@@H](C)C(=O)N[C@@H](CCC(N)=O)C(=O)N[C@@H](CCCCN)C(=O)NCC(=O)N[C@@H](CCCCN)C(=O)N[C@@H](CCCCN)C(=O)N[C@@H](CC(N)=O)C(=O)N[C@@H](CC(=O)O)C(=O)N[C@@H](Cc1c[nH]c2ccccc12)C(=O)N[C@@H](CCCCN)C(=O)N[C@@H](Cc1c[nH]cn1)C(=O)N[C@@H](CC(N)=O)C(=O)N[C@H](C(=O)N[C@H](C(=O)N[C@@H](CCC(N)=O)C(=O)O)[C@@H](C)O)[C@@H](C)CC)C(C)C)[C@@H](C)CC` the IC50 was 0.01 µM (Gastric inhibitory polypeptide receptor (GIPR, Homo sapiens, UniProt P48546); ligand displacement in cells, radioligand).
With `O=C1C(Cl)=C(NCCN2CCOCC2)C(=O)c2ncccc21` the IC50 was 0.5 µM (N-lysine methyltransferase SMYD2 (SMYD2, Homo sapiens, UniProt Q9NRG4, G165E); enzyme activity, inhibitor).
For `CNC(=O)CN1CN(c2ccccc2)C2(CCN(C(=O)c3cnc4[nH]ccc4c3)CC2)C1=O`, the IC50 was over 167 µM (DDR1; ligand displacement).
`N[C@@H](CC#CCN1CCCCCC1)C(=O)O` gave an IC50 of 1220 µM (collagenase; gelatin hydrolysis, inhibitor).
`C=CC(=O)N1CCc2ccc(-n3c(=O)ccc4cnc5ccc(-c6cnn(C)c6)cc5c43)cc21` gave an IC50 of over 10 µM (Ribosomal protein S6 kinase alpha-1 (RPS6KA1, Homo sapiens, UniProt Q15418); enzyme activity, inhibitor).
The IC50 of `Cc1ccc(CNC(=O)C(CCc2ccccc2)NC(=O)C(NC(=O)Cc2cccc(Oc3ccccc3)c2)C(C)O)cc1` (stereo not shown) is reported as over 100 µM (Proteasome subunit beta type-10 / Proteasome subunit beta type-3 (Homo sapiens, UniProt P40306+P49720); inhibitor).
`Cc1ccc(CNC(=O)[C@@H](NC(=O)[C@H](CCc2ccccc2)NC(=O)[C@H](CCc2ccccc2)N(C)Cc2cnccn2)C(C)C)cc1` has an IC50 of 0.0789 µM (20S proteasome (Plasmodium falciparum, UniProt A0A5K1K7U1+Q8IJT1); β5 activity, inhibitor; added: Suc-LLVY-AMC, PA28α-activated).
`COc1cc2nccc(Oc3ccc(NC(=S)NCc4ccccn4)c(Cl)c3)c2cc1C(N)=O` has an IC50 of 2.75 µM (FGFR1).
For `O=C(Nc1ccc(OC(F)(F)F)cc1)N1CCC(Cc2cccc(Oc3ccc(C(F)(F)F)cn3)c2)CC1`, the IC50 was 0.066 µM (Fatty-acid amide hydrolase 1 (Faah, Mus musculus, UniProt O08914); enzyme activity, inhibitor, fluorescence; mouse tissue homogenate; 60 min preincubation).
With `COc1cc2nccc(Oc3ccc(NC(=S)NCCc4ccccc4)c(Cl)c3)c2cc1C(N)=O` the IC50 was 3.38 µM (FGFR1).
With `N#Cc1cnc(Nc2nc3ccccc3o2)nc1-c1ccsc1` the IC50 was 4.74 µM (Grm5; calcium signal, antagonist).
`CCNCCN(CC)c1nc(Nc2ccc3ncoc3c2)nc(N[C@@H](C)C2CCCCC2)n1` gave an IC50 of 35 µM (E3 ubiquitin-protein ligase synoviolin (SYVN1, Homo sapiens, UniProt Q86TM6); enzyme activity, inhibitor, radiometric).
`CCN(c1ccccc1)c1nc(Cl)nc2[nH]ncc12` has an IC50 of 237 µM (Tryptophan 2,3-dioxygenase (TDO2, Homo sapiens, UniProt P48775); inhibitor; added: L-tryptophan 400 µM).
With `COc1cc2nccc(Oc3ccc(NC(=S)NC4CC4)c(Cl)c3)c2cc1C(=O)N(C)C` the IC50 was 8.13 µM (FGFR1).
`O=C(NO)[C@H](Cc1ccc(O)cc1)n1cc(CNS(=O)(=O)c2ccc(-c3ccccn3)s2)nn1` gave an IC50 of 0.47 µM (Endoplasmic reticulum aminopeptidase 2 (ERAP2, Homo sapiens, UniProt Q6P179); enzyme activity, inhibitor, fluorescence).
`CN1Cc2c(Cl)cc(Cl)cc2C(c2ccc(S(=O)(=O)NCCOCCOCCOCCNC(=O)C(O)C(O)C(=O)NCCOCCOCCOCCNS(=O)(=O)c3ccc(C4CN(C)Cc5c(Cl)cc(Cl)cc54)cc3)cc2)C1` (stereo not shown) gave an IC50 of 0.0631 µM (Sodium/hydrogen exchanger 3 (Rattus norvegicus, UniProt P26433); intracellular pH recovery, inhibitor, pH-sensitive dye; opossum kidney cells, transfected).
`C=Cc1ccc(/N=c2\oc3ccccc3cc2-c2ccccc2)cc1` gave an IC50 of 0.0127 µM (Prostaglandin G/H synthase 2 (PTGS2, Homo sapiens, UniProt P35354); enzyme activity, inhibitor).
With `Cc1cc(Cl)ccc1[C@H]1N[C@H](C(=O)O)Cc2c1[nH]c1ccccc21` the IC50 was 0.26 ± 0.05 µM (MEP cytidylyltransferase IspD; enzyme activity, inhibitor, fluorimetric pyrophosphate; 60 nM enzyme).
